Results collected from several papers.
Protocols differ between the studies behind these lines. Several values in a cell are separate wells, animals, samples, runs or records. ± marks the error that the study gave.

SMILES | test | system | conditions | how to read | measurement | value
O=C(CCC(C(=O)[O-])N1CCN(C(CCC(=O)NCC(O)CO)C(=O)[O-])Cc2cccc(n2)CN(C(CCC(=O)NCC(O)CO)C(=O)[O-])CC1)NCC(O)CO.[Gd+3] (centres unmarked) | LC-ICP-MS | human plasma | pH 7.4, 37 °C | reference: total Gd per day | Gd release | 0.014%
CNC(=O)c1ccc(-c2cnc3ncc(Cc4ccc5ncccc5c4)n3n2)cc1F | – | Japanese patients | oral, 400 mg, any grade | – | Pneumonitis treatment discontinuation | 2%
Cc1c(-c2ccc(N3CCc4cccc(C(=O)Nc5nc6ccccc6s5)c4C3)nc2C(=O)O)cnn1CC12CC3(C)CC(C)(C1)CC(OCCNCC[C@H](O)CO)(C3)C2 | – | anaesthetised male beagle dogs | intravenous infusion, 0.3 mg/kg/min, 105 min | reference: vehicle | cardiac output change | -50%
COc1ccc2c(=O)n(C)c(-c3ccccc3)nc2c1 | – | Sprague-Dawley rat, male, liver | oral, 30 mg/kg, 0.25 h | reference: liver over plasma | tissue/plasma ratio | 58.9
CC(C)[C@H](C(=O)Nc1ccc(C(=O)NO)cc1)c1ccccc1 | – | whole blood | 10.0 ng/mL, 0 h, 4 °C, stability on ice | – | accuracy | 101%
COc1ccc2nc([S@@+]([O-])Cc3ncc(CO)c(OC)c3C)[nH]c2c1 | – | human | concentration not given, control session | reference: (R)-OH-omeprazole over compound | AUC ratio | 11 fold
Cc1cc([C@H]2C[C@H]3[C@@H](CF)SC(N)=N[C@@]3(c3ccc(F)cc3F)CO2)on1 | – | male 129/SVE wild-type mouse, plasma | subcutaneous, 100 mg/kg, 7 h | – | plasma concentration | 72 nM
CNCCOC12CC3(C)CC(C)(CC(Cn4ncc(-c5ccc(N6CCc7cccc(C(=O)Nc8nc9ccccc9s8)c7C6)nc5C(=O)O)c4C)(C3)C1)C2 | – | beagle dog, male, anaesthetised | intravenous bolus, 0.03 mg/kg, 180 min | reference: baseline | mean arterial pressure change | -22%
O=C(O)CCC(=O)O.[2H]C([2H])([2H])Oc1cc(C)c2[nH]ccc2c1CN1CC[C@@H](C2CC2)C[C@H]1c1ccc(C(=O)O)cc1 | multiple ascending dose | healthy Chinese subjects | 200 mg once daily | – | subjects with proteinuria TEAE | 0%
CCN1CCN(Cc2ccc(NC(=O)c3ccc(C)c(NC(=O)c4cncc(-c5cccs5)c4)c3)cc2C(F)(F)F)CC1 | LC-MS/MS | C57BL/6 mouse, plasma | intraperitoneal, 15 mg/kg single dose, 0.25 h | – | mean plasma concentration | 531 ng/mL
CNC(=O)c1cc(Oc2ccc(NC(=O)Nc3cc(C(C)(C)C)nn3-c3ccc4ncccc4c3)c(F)c2)ccn1 | item: worst grade 1 | human | oral, dose not given, cycles 1 and 2, Medium Cmax subgroup | – | patients with any AE of special interest | 40%
Oc1ccc(Br)c2cccnc12 | – | oil/water | pH 5.4 | – | partition coefficient | 89.5
CN(C(=O)n1cnc(-c2cccnc2)c1)[C@H]1CC[C@H](O)CC1 | – | rat, cortex | oral, 10 mg/kg daily for 5 days, 24 h | – | tissue concentration | 16.8 ± 1 ng/g
CC(C(=O)NCC(=O)NCC(CNC(=O)CNC(=O)C(C)N1CCN(CC(=O)[O-])CCN(CC(=O)[O-])CCN(CC(=O)[O-])CC1)(CNC(=O)CNC(=O)C(C)N1CCN(CC(=O)[O-])CCN(CC(=O)[O-])CCN(CC(=O)[O-])CC1)CNC(=O)CNC(=O)C(C)N1CCN(CC(=O)[O-])CCN(CC(=O)[O-])CCN(CC(=O)[O-])CC1)N1CCN(CC(=O)[O-])CCN(CC(=O)[O-])CCN(CC(=O)[O-])CC1.[Gd+3].[Gd+3].[Gd+3].[Gd+3] (centres unmarked) | ICP-MS | cynomolgus monkey, plasma | intravenous bolus, first sample after dosing | – | Tmax | 2 min
c1ccc2c(c1)ccc1cc3c(ccc4ccccc43)cc12 | – | polyethylene-water partitioning | PAH compilation | – | literature range of log K | 5.64 to 7.32 log units
COc1cc2c3c(n(CCCN4CCOCC4)c(=O)c2cc1OC)-c1cc2c(cc1C3=O)OCO2 | – | beagle dog, female, plasma | intravenous infusion, 50 mg/m^2, 1 h infusion, vehicle 2 | – | t1/2 | 7.9 ± 2.2 h
CC(C)(C(=O)N1CCOc2c(C#N)cncc2C1)C(F)F | item: skin abrasion | human | oral, 10 mg once daily, 14 days, multiple ascending dose | – | subjects with adverse event | 0%
CC(C)n1c(Nc2cccnc2)nc2cnc(Nc3ccc(N4CCN(C)CC4)cc3)nc21 | item: urine leukocytes positive | healthy male subjects | oral, 100 mg, study, with: itraconazole | – | subjects with adverse event | 0%
C[C@@H](Oc1ccc(S(C)(=O)=O)cc1C(=O)N1C[C@@H]2C[C@]2(c2cc(C(F)(F)F)on2)C1)C(F)(F)F | – | young healthy humans, plasma and urine | oral, 25 mg, 0 to 24 h, single dose | – | renal clearance | 4.04 mL/min

SMILES | test | system | conditions | how to read | measurement | value
COc1ncc(-c2nc3c(n2C(C)C)[C@H](c2ccc(Cl)cc2)N(c2cc(Cl)cn(C)c2=O)C3=O)c(OC)n1 | LC-MS/MS, noncompartmental | human, plasma | oral, 200 mg, cycle 2 day 1, high-dose, geometric mean | – | AUC(0-last) | 14700 ng·h/mL
CCc1cc(C(=O)NC)c2nccc(N3CCc4c(cc(Cn5ccnc5)cc4-c4cn(C)nc4C(F)(F)F)C3=O)c2c1 | – | Sprague Dawley rats | oral, 50 mg/kg once daily, 7 days | reference: vehicle | reticulocyte count change | -7.98%
NCCONC(=O)[C@@H]1CC[C@@H]2CN1C(=O)N2OS(=O)(=O)O | – | human male, urine | intravenous infusion, 2 g multiple doses, day 9 | – | amount excreted in urine (0-8 h) | 1620 mg
COc1cccc(OC)c1-c1cc(C(=O)NC2(C(=O)O)C3CC4CC(C3)CC2C4)nn1-c1ccc(C(=O)N(C)CCCN(C)CCCN(C)C(=O)CN2CCN(CC(=O)[O-])CCN(CC(=O)[O-])CCN(CC(=O)[O-])CC2)cc1C(C)C.[177Lu+3] (centres unmarked) | – | mouse HT-29 xenograft | 168 h, biodistribution | reference: tumour over pancreas | tumour-to-pancreas ratio | 9.63
C[C@H]1O[C@@H](O[C@H]2[C@@H](O)C[C@H](O[C@H]3[C@@H](O)C[C@H](O[C@H]4CC[C@@]5(C)[C@H](CC[C@@H]6[C@@H]5C[C@@H](O)[C@]5(C)[C@@H](C7=CC(=O)OC7)CC[C@]65O)C4)O[C@@H]3C)O[C@@H]2C)C[C@H](O)[C@@H]1O | item: oral herpes | healthy men | dose not given, 8 days, treatment-emergent, crossover trial | – | subjects with adverse event | 0%
CC(C)C[C@H](N)C(=O)N[C@@H](Cc1c[nH]c2ccccc12)C(=O)N[C@@H](Cc1c[nH]c2ccccc12)C(=O)N[C@@H](CCCNC(=N)N)C(=O)N[C@@H](Cc1c[nH]c2ccccc12)C(=O)N[C@@H](Cc1c[nH]c2ccccc12)C(=O)N[C@@H](CCCNC(=N)N)C(=O)N[C@@H](Cc1c[nH]c2ccccc12)C(=O)N[C@@H](CCCNC(=N)N)C(=O)O | circular dichroism | 50% TFE | – | – | helix content | 2.16%
CNC(=O)c1cc(Oc2ccc(NC(=O)Nc3ccc(Cl)c(C(F)(F)F)c3)c(F)c2)cc[n+]1[O-] | – | reconstituted solution | up to 24 h, 4 °C | reference: initial concentration | autosampler stability | < 15%
NC(=O)N1c2ccccc2C=Cc2ccccc21 | item: skin disorders (SOC) | human male | oral, dose not given, CTCAE on-treatment AEs | – | adverse events incidence | 13%
O=C(O)C1=CO[C@@H](O[C@@H]2O[C@H](CO)[C@@H](O)[C@H](O)[C@H]2O)[C@@H]2C(CO)=CC[C@H]12 | post-procedure stability | rat plasma | 8 ng/mL, 1 h, room temperature | – | accuracy | 92.3%
FC(F)(F)c1ccc(CNc2ccc(Cc3c[nH]c4ncc(Cl)cc34)cn2)cn1 | item: Insomnia | patients with advanced solid tumours, all cohorts | oral, 1000 mg/day, any grade | – | treatment-related adverse events | 12%
Cc1cc(Nc2ccc(S(F)(F)(F)(F)F)cc2)n2nc(C(C)(F)F)nc2n1 | – | Plasmodium vivax malaria patients | oral, 600 mg | – | adverse event Vomiting | 11.1%
COc1cc(N2CCC(N3CCN(C)CC3)CC2)ccc1Nc1ncc(Cl)c(Nc2ccccc2P(C)(C)=O)n1 | – | human male, urine | oral, 180 mg | reference: dose | radioactivity recovered | 25%
CCCC(CCC)C(=O)Oc1cccc(C(O)CCN)c1.O=CO (centres unmarked) | – | Abca4-/-Rdh8-/- mice, photic damage | oral, 20 mg/kg, 7 days, flash intensity 0.002 | – | ERG, scotopic, rod b-wave | 37.5 µV and 28.7 µV and 39.1 µV and 46.4 µV and 27.8 µV and 38.8 µV
C=CC(=O)Nc1cccc(-n2nc3c(=O)[nH]nc(N)c3c2-c2oc3ccc(C)cc3c2C)c1 | – | BALB/c nude mouse, whole blood | 1 µM, 5 h, 37 °C | – | remaining compound | 20.2%
O=C(Nc1nc2cccc(-c3ccc(CN4CCS(=O)(=O)CC4)cc3)n2n1)C1CC1 | item: hypertension | human rheumatoid arthritis patients | oral, 30 mg once daily, 4 weeks, regardless of relatedness | – | treatment-emergent adverse events | 5.9%
CCN1/C(=C/C(C)=O)Sc2ccc(F)cc21 | – | cynomolgus monkey | oral, 30 mg/kg, 4 h post-dose | reference: pre-dose | mean blood pressure change | 99.5 ± 4.2%
N[C@@H](CC(=O)N1CCn2c(nnc2C(F)(F)F)C1)Cc1cc(F)c(F)cc1F | – | human, female, plasma | oral, 100 mg single dose | – | AUC(0-2) divided by body mass index | 20.3 ± 5.34 ng·h/mL
CC(C)C[C@H](NC(=O)[C@@H](Cc1c[nH]c2ccccc12)NC(=O)[C@H](Cc1ccc(O)cc1)NC(=O)[C@H](CO)NC(=O)[C@H](Cc1c[nH]c2ccccc12)NC(=O)[C@H](Cc1c[nH]cn1)NC(=O)[C@@H]1CCC(=O)N1)C(=O)N[C@@H](CCCNC(=N)N)C(=O)N1CCC[C@H]1C(=O)NCC(N)=O | – | Chinese CPP boys | intramuscular, 22.5 mg, 12 months, day 1, month 6 | – | patients, drug-related Overweight TEAEs | 25%
O=C(Cc1ccc2ccccc2c1)Nc1cc(C2CCC2)[nH]n1 | – | mouse plasma | 375 ng/mL, 8 h, ambient temperature, bench-top stability | – | accuracy | 94.5%
